Results from different studies.
Parts stem from different laboratories: compare values within a part only.

Series 1
Target: Sal-like protein 4, full length isoform B (SALL4, Homo sapiens, UniProt Q9UJQ4-2, residues 1-616)
Technique: universal PBM
Molecule type: double-stranded DNA, one strand shown
Sample: in vitro
Tested at: not given
Setting: 8-mer, flanks averaged, mean of replicates
Reading: higher = stronger binding
Quantity: E-score
AACACGAG: 0.0571
CAATCTAG: 0.119
TCGAGTAA: 0.0895
AAATTTTC: 0.232
AGTACAGA: 0.107
ATCACTAG: 0.0217

Series 2
Target: Histone acetyltransferase KAT6A, both winged helices, GST fusion (KAT6A, Homo sapiens, UniProt Q92794, residues 1-181)
Technique: protein binding microarray
Molecule type: double-stranded DNA, one strand shown
Sample: in vitro
Tested at: not given
Setting: 8-mer, flanks averaged, mean of 2 arrays, mostly near background
Reference: not given
Reading: higher = stronger binding
Quantity: E-score
Construct (chain): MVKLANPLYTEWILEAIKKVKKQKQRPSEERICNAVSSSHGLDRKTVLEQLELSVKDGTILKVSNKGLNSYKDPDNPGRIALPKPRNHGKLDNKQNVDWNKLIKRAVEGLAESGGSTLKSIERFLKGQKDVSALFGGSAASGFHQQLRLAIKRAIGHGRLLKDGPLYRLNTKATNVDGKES
CGCATAAG: 0.14
AGATAATC: -0.0437
CCGGTGGC: 0.117
AACATCCG: 0.204
CAATTAGG: -0.155

Series 3
Target: Interferon regulatory factor 5, full length, phosphomimetic (IRF5, Homo sapiens, UniProt Q13568-2, residues 1-514, K96S/S451D/S453D/S456D/S462D)
Technique: protein-binding microarray
Molecule type: double-stranded DNA, one strand shown
Sample: in vitro
Tested at: 250 nM
Setting: 60-bp whole probe
Added: salmon DNA 0.4 mg/ml
Reference: random background probes
Reading: higher = stronger binding
Quantity: log fluorescence
GCCTAGCACGACGAACTGATTATCGAGACGTGCTAGGTCTTGATTCGCTTGACGCTGCTG: 1.41 z-score
GCCTAGCACAACGGACTGGGGTTTCGGGACGTGCTAGTCTTGATTCGCTTGACGCTGCTG: 1.12 z-score
GCCTAGCACTTAGAACTGAGTTTCGAATAGTGCTAGGTCTTGATTCGCTTGACGCTGCTG: 4.81 z-score
GCCTAGCACCACAACCAAACAAGAAGATGGTGCTAGGTCTTGATTCGCTTGACGCTGCTG: 0.0449 z-score

Mixed results
PhoQ, residues 284 288 289 292 302 303 MLMVEA  fold induction (PhoP, residues 12 14 15 18 19 HLGGL (Escherichia coli, UniProt P23836); Sort-seq, measured: YFP reporter; E. coli; PhoQ-PhoP variant library, added: 10 µM Mg2+; reference: high Mg2+ state, higher = stronger signaling): 17.2

Excerpt of the above (series 2):
AGATAATC: -0.0437
